# Published values gathered from unrelated publications.
# A part holds a random share of what one study measured.

# Series 1 — method: protein binding microarray; form: double-stranded DNA, one strand shown; sample: in vitro; concentration: not given; reference: not given; reading: higher = stronger binding
# Target: Histone acetyltransferase KAT6A, both winged helices, GST fusion (KAT6A, Homo sapiens, UniProt Q92794, residues 1-181)
# Notes: 8-mer, flanks averaged, mean of 2 arrays, mostly near background
# Construct (chain): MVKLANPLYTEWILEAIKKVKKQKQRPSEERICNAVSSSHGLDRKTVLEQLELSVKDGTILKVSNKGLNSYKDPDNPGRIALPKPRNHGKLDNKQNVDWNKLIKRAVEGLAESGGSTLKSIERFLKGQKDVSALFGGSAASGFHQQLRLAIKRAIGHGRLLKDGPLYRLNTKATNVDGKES
Strand,E-score
ACCGATAG,-0.0721
GTATTAGA,-0.0768
GCGGGCAA,0.18
ACGAAAAC,-0.048
CACTCTAA,-0.221
ACTTATAT,-0.0758
AAAACGTA,-0.0938
AACTTTGG,-0.0901
ATGTACAA,-0.0482
GTGCTCTA,-0.112
CGAACGGC,0.303
ACCATTAC,-0.0674
CCGGACGA,0.0719
AGACTCAC,-0.242
GTCATATA,-0.0869
ATTTACAC,-0.0403
ATTTAAGA,-0.147

# Series 2 — method: RNA Bind-n-Seq; form: RNA; sample: in vitro; concentration: 200 nM; notes: whole 134-nt RNA, ends assumed; together with: 150 mM LiCl; reference: input library; reading: higher = stronger binding; library: 7-deaza-guanosine replaces G
# Target: Fragile X messenger ribonucleoprotein 1, C-terminal low-complexity region (Fmr1, Mus musculus, UniProt P35922)
# Shared flanks, not repeated: GGGAGUUCUACAGUCCGACGAUC … UGGAAUUCUCGGGUGUCAAGG
Strand,log2 enrichment
ACCAUGCAGGUGGGCAUCUUUGGGAAGUGGGGCAAGGGGGGGAUAGGGAGGGGGGUAACACUUUGGGAACAGGUGGUCCCAGGUGGUUUC,1.33
UAACUUUAGAGGACGAUCUGAUGGAUAUGGCAGUGGACGUGGAUUUGGGGAUGGCUAUAAUGGGUAUGGAGGAGGACCUGGAGGUGGCAA,0.424
GUCCUGUGCUACACAUCGUAUGUACCGAAUCAAACCCCCAAACCCCCCCAAACCCAAAAAAGUAUUAUGUUACGCCGUUCGGAUCUGCAC,0.854
UAACUUUAGAGGAGGAUCUGAUGGAUAUGGCAGUGGACGUGGAUUUGGGGAUGGCUAUAAUGGGUAUGGAGGAGGACCUGGCGGUGGCAA,0.348
UGGCCCUGGUGGCAUGCGGGGAGGAAGAGGUGGCCUCAUGGAUCUUGGUGGUCCCGGUGGAAUGUUCAGAGGUGGCCGUGGUGGAGACAG,-0.261
UGGCCCUGGUGGCAUGCGGGGAGGAAGAGGUGGCCUCAUGGAUCGUGGUGGUCCCGGUGGAAUGGUCAGAGGUGGCCGUGGUGGAGACAG,-0.176
CACAGACAACACGCACCCCCACAGACACAGAGGGAAGGGGUUGGGAUGGGGACAGGGUGCACAGCAGGGCGGGGUAGGACCCCAGCCCCU,-0.347
UGGGAGGUGGAUUUUGUUUAUUUUUUUAGCUCCUUUCCAGGGGUGGGAAUUUUUUUUUAAUAUGUGUCAUGAAUAAAGUUGUUUUUGAAA,0.346
CUCAAGUCCUGUGCUACACAUCGUAUGUACCGAAUCGGUUGGGUUGGGGUUGGAAAGUAUUAUGUUACGCCGUUCGGAUCUGCACUUCCA,-0.113
CACAGACAACACGCACCCACACAGACACAGAGGGAAGGGGUUGGGAUGGGGACAGGGUGCACAGCAGGGCGGGGUAGGACCCCAACCCCU,0.764
UGGCCCUGGUGGCAUGCGGGGAGGAAGAGGUGGCCUCAUGGAUCGUGGUGGUCCCGGUGGAAUAUUCAGAGGUGGCCGUGGUGGAGACAG,0.179

# Series 3 — method: RNAcompete; form: RNA; sample: in vitro; concentration: 20 nM; notes: 7-mer, probes averaged, single round; reference: mean of 7-mers; reading: higher = stronger binding
# Target: PABPC1L2, full length, GST fusion (mouse, UniProt A0ABA7IW68)
# Construct (chain): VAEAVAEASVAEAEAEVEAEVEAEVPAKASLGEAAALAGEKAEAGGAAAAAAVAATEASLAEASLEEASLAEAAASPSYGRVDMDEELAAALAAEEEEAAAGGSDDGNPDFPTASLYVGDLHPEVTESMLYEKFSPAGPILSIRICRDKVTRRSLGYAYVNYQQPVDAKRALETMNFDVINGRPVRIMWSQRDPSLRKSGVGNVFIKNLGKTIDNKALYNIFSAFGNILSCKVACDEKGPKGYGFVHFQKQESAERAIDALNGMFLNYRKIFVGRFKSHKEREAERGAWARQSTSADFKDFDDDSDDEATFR
Strand,7-mer Z-score
GACAAAU,0.76
CGAGUUU,-0.356
AGCGAUU,-0.0953
UCACCUA,-0.233
ACGAGGG,0.151
ACUUGGU,0.146
CGGUGAC,-0.0464
GCCACUU,-0.193
AGUUGAU,0.00254
GCAGGGA,0.253
UAUGAAU,-0.113
UUAUAUU,-0.238
CUACGUU,-0.128
CGUCCCA,-0.209
CGCGGGU,-0.0772
UCAUGUU,-0.414
GGACAAU,0.167
UAUGACC,-0.0246
UGCGACC,-0.155

# Series 4 — method: RNA Bind-n-Seq; form: RNA; sample: in vitro; concentration: not given; reference: input RNA pool; reading: higher = stronger binding
# Target: RING finger protein unkempt homolog, zinc fingers 1-6, GST-SBP tag (UNK, Homo sapiens, UniProt Q9C0B0, residues 30-357)
# Notes: RNA with constant flanks, human and mouse sites, ends assumed
# Shared flanks, not repeated: GGGAGUUCUACAGUCCGACGAUC … CAACAGAGGAUUGAGCAUCA
# Target sequence (chain): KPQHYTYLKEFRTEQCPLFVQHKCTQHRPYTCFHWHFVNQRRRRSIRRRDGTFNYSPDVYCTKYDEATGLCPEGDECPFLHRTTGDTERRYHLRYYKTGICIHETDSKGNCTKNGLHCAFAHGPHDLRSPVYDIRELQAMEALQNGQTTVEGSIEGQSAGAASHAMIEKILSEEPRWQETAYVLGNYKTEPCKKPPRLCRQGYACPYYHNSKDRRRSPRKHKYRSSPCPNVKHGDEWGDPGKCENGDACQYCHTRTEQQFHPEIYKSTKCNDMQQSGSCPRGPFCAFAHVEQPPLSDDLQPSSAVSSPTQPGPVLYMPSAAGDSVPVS
Strand,bound/input enrichment [ratio]
UCGCUGCUGGACCUGCUGGAGUGCUCCGUGUGUCUGGAGCGCCUGGACACCACGGCCAAGGUGCUGCCAUGCCAACACACUUUCUGCCGCCGCUGCCUGGAGAGCAUCGUGUGCUCGCGC,0.0601
CCAGAAGCCAUAAGGCAAGAUCCUACCCGGAAAGGCUCAGUGGUCAAUGUGAAUCCUACCAACACUAGGCCACAGAGUGACACCCCGGAGAUUCGUAAAUACAAGAAGAGGUUUAACUCU,0.121
GAUGGACUACAUUUGUCUCCAAAGGGGAAUGAAUUUUUGUUCUCGCAUCUCUGGCCUUUGAUAGAGAAAAAGGUCUCUUCUCUACCUUUGCUGCUUCCUUACUGGCGGGAUGUAGCAGAA,0.294
GGAGGAAUGCCUUUCGCAAUAAUGUAUCCAUUCCCUGAUUGAGGGUGGGUGGGUGGACCCAGGCUCCCUUUGCACACAGAGCAGCUACUUCUAAGCCAUAUCGACUGUUUUGCAGAGGAU,0.132
GAACCGAAAGGCCAAAUUCCCUCCUCCCUUCUACUGCUUCUACCAACUGGAAGCACAGAAAACUAGAAUUUCAUUUAUUUUGUUUUUAAAAUAUAUAUGUUGAUUUCUUGUAACAUCCAA,7.37
GAAAAACUUCAGCUCCUGCUUGAAGAACUAAGAGGAGAAUUAGUAGAGAAAACUAAAGAUUUAGAAGAAAUGAAACUGCAGAUAUUAACUCCACAAAAAUUGGAAUUGCUAAGAGCCCAA,1
CCCUCCGCUGGGAACGAUGGCUUCUGCCUAGUACCUAUCCUUGUGUUUCUGAUGCAGUGGUAGCAUUGGUUCAAGUUCUCUCCUGCUGUGGUCAGAGUUGCUUCGAUGUUGGCCAAGUGC,0.259
GCCCUCAAUUUUUCUGUGUUCUACUAUGAGAUCCAGAAUGCACCAGAGCAAGCCUGCCUCUUAGCCAAACAAGCCUUCGAUGAUGCUAUAGCUGAGCUGGACACAUUAAACGAGGAUUCC,0.28
CUCAUUCACCGGAAGAACCUCAACUAUCUGCACUUGGACUACAACUUCAACCUGAAGCCUGUCAAGACGCUCACCACCAAGGAAAGAAAGAAAUCCCGUUUUGGGAAUGCUUUCCAUCUA,0.123
GCUGGGGAGGAGGCAGCCCUGGGAGCCGAGCUCUGUGAGGAGACCCCUGUGAAUGACAACUCAUCCAUCGUGGUGCGCAUCGCGCCCGAGGAGCGGCAGAAAUACGAGGAGGAGAUCCGC,0.287
UGAUGAGUAUUUGCAUUAUGAAUGUAUAAUCCAGACAUUAUUUGUAAAGCCUACAGUAUGUUUUUUUUACCUAACACUUUUUAUACUGUGUCUCGUCUCGACAAUAUGAUAUUGAAGUCU,0.371

# Series 5 — method: universal PBM; form: double-stranded DNA, one strand shown; sample: in vitro; concentration: 600 nM; reading: higher = stronger binding
# Target: Sal-like protein 4, full length isoform A (SALL4, Homo sapiens, UniProt Q9UJQ4, residues 1-1053)
# UniProt Q9UJQ4, sequence (whole entry, looked up): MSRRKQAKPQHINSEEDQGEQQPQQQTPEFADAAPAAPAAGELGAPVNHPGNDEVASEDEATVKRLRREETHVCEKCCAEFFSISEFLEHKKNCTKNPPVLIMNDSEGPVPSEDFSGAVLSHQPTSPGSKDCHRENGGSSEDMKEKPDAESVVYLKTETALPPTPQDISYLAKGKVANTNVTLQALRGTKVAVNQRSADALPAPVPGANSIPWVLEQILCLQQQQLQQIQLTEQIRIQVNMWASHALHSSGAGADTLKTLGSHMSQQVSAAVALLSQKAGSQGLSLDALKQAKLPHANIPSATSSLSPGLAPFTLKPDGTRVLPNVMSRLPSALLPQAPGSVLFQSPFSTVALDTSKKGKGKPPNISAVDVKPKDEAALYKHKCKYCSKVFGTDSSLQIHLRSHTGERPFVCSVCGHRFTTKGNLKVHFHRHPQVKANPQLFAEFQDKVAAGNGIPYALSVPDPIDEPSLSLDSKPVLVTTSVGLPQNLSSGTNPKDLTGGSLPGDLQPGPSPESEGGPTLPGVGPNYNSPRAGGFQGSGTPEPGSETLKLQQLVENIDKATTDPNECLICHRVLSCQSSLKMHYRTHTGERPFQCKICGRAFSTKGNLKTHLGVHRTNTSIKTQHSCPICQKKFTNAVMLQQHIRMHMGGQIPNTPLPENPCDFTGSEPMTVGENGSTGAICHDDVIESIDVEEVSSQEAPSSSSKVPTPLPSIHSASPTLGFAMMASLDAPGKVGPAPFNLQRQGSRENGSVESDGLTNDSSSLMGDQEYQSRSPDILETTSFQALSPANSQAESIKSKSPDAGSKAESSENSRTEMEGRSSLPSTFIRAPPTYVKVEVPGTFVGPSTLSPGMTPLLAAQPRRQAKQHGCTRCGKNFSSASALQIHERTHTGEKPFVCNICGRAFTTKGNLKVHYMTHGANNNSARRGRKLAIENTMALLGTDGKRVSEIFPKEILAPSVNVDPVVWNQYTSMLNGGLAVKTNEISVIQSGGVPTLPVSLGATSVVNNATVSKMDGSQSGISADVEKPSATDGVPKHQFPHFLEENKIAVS
# Notes: 8-mer, flanks averaged, mean of replicates
Strand,E-score
CTGACAGC,-0.252
AACCTCGA,-0.00377
CCCGACGG,-0.337
AGGACGGA,-0.173
ACCAGGTA,-0.129
CTCCTCTC,-0.196
CTTGGACA,-0.12
ATGGTAAG,0.0559
GGCGTAGA,-0.0419
ACGGGAGG,-0.122
ACACCCTA,-0.0113
CTGCGCTA,-0.174
CCACTTAG,-0.0365
CAGAGGTC,-0.212
CGTGGAAC,-0.149
GTGTCGGA,-0.154
GCGGATCC,-0.401
CTCAAACC,-0.214
GATTTTCA,0.282
AAATGATC,0.0854
GGCTTACC,-0.314
CGAATGTA,0.101
CAAAGGTA,0.0644
AGGCGTAT,0.165
ACCCTCAA,0.0125

# Series 6 — method: protein-binding microarray; form: double-stranded DNA, one strand shown; sample: in vitro; concentration: not given; reading: higher = stronger binding
# Target: Protein max, full length (MAX, Homo sapiens, UniProt P61244-2, residues 1-151)
# Notes: k-mer, scored over probes, only values ≥0.25
Strand,E-score
ACGCGTCA,0.324
CCTCATGC,0.389
CGTGCGAG,0.377
CGGCATGA,0.357
GATCATGC,0.386
AGAGCATG,0.401
CACGCTGA,0.434
CCTCATGA,0.325
GTCCACGA,0.279
ACGCGGCA,0.357
AAACATGT,0.351
CGTGCATC,0.374
CACATTGC,0.384
ATCACATG,0.478
CATGCTAG,0.361
TGGTCACA,0.292
CAAGCACA,0.253
ACGCATGC,0.439
ATGCGCAT,0.405
CCCGCCCA,0.362
CCTCGAGG,0.279
CTGCACAC,0.317
ACGGCGTG,0.413

# Series 7 — method: protein-binding microarray; form: double-stranded DNA, one strand shown; sample: in vitro; concentration: 250 nM; notes: 60-bp whole probe; together with: salmon DNA 0.4 mg/ml; reference: random background probes; reading: higher = stronger binding; shared flanks, not repeated: GCCTAGCAC … GTCTTGATTCGCTTGACGCTGCTG
# Target: Interferon regulatory factor 7, full length, phosphomimetic (IRF7, Homo sapiens, UniProt Q92985, residues 1-503, S101K/S471D/S472D/S475D/S476D/S477D/S483D/S484D/S487D)
# UniProt Q92985, sequence (whole entry, unmodified, looked up): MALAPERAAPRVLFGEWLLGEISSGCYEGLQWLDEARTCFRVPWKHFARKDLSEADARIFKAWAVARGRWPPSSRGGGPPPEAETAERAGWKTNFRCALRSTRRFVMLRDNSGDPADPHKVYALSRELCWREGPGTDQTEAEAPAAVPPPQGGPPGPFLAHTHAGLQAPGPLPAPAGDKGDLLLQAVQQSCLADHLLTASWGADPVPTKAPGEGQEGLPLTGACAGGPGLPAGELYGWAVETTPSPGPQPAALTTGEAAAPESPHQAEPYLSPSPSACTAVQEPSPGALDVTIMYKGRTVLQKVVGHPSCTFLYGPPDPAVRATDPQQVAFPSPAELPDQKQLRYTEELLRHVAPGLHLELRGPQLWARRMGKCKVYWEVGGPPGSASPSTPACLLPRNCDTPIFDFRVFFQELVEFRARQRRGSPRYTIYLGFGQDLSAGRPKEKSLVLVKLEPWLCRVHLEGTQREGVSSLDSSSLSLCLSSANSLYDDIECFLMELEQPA
Strand,log fluorescence [z-score]
TTAGGTAACGACACTGGGTTAGTGCTA,-0.354
TTAGAGCTCAGACTGGATTAGTGCTAG,-0.544
TTAGGTAGCGGGACTGGGTTAGTGCTA,-0.736
GACGGTTGCGACTATCGGGACGTGCTA,-0.321
AGACGAATCATATCAAAATTGTGCTAG,-0.0418
GACGGACTCGGGACTGGGGACGTGCTA,-0.168
GACGATATCGGGTATTGAGACGTGCTA,-0.317
TGAGATCTCAGTTTCGATTAGTGCTAG,8.03
TGGAACCAGCGAACGAGCGGGTGCTAG,-0.752
GACGGTATCGACTTTCAGGACGTGCTA,0.749
TCAAGACTCATAATGGCTAGGTGCTAG,0.375
GACGGTTCTCTTTTCCTGACGTGCTAG,1.6
GATGGTTTCCTTTCCCTGACGTGCTAG,5.12
TTTGATTCCAGTTTCGATTAGTGCTAG,9.08
GACGGTTTCCTGTCCCTGACGTGCTAG,1.69
GACGGTTCCCTTTTCTTGACGTGCTAG,2.43
CGCTTTCTTTAACTCATTTTGTGCTAG,3.8

# Repeated from above (series 3):
Strand,7-mer Z-score
ACGAGGG,0.151
AGCGAUU,-0.0953
AGUUGAU,0.00254
GCCACUU,-0.193
ACUUGGU,0.146
UAUGAAU,-0.113
CGCGGGU,-0.0772
GGACAAU,0.167
GCAGGGA,0.253
CGAGUUU,-0.356
UAUGACC,-0.0246
UUAUAUU,-0.238
CUACGUU,-0.128
UCACCUA,-0.233
UGCGACC,-0.155
GACAAAU,0.76
CGUCCCA,-0.209
